{"data": "Experimental data of several laboratories", "rep main protease": "Replicase polyprotein 1ab, main protease (rep, Severe acute respiratory syndrome coronavirus 2, UniProt P0DTD1)", "note": "Each line is one published result; not all experiments were run side by side. Several values in a cell are separate wells, animals, samples, runs or records. ± gives the spread as reported."}
{"Substance": "CCCN(CCC)CCCNC(=O)C1CCCN(Cc2nc(-c3ccc(Cl)cc3)oc2C)C1 (stereo not shown)", "target or system": "SARS-CoV-2", "assay": "cytopathic effect, cell-based CPE", "system": "USA_WA1/2020", "setting": "round 2, 5-point dilution", "quantity": "efficacy", "result": "87.3%"}
{"Substance": "Cc1cc(/C=C/C#N)cc(C)c1Nc1ccnc(Nc2ccc(C#N)cc2)n1", "target or system": "HIV-1", "assay": "viral replication, single-round infection", "system": "RT mutant K101E/M184I", "quantity": "EC50", "result": "0.7 ± 0.1 nM"}
{"Substance": "TPSFKKGAKLLHKPI", "target or system": "human CD4 T cells", "assay": "AIM", "system": "peptide", "quantity": "responding donors", "result": "8%"}
{"Substance": "ω-agatoxin IVA", "assay": "cAMP signalling, high-content microscopy", "system": "DRG neurons, rat, spinal cord injury", "setting": "dose not given, normalised 0 to 1, unit not given, together with: forskolin, DAMGO 0.1", "scale": "reference: DAMGO maximum, higher = stronger inhibition", "quantity": "PKA-RII phosphorylation inhibition", "result": "0.822 and 0.87 and 0.915"}
{"Substance": "Cc1cc(/C=C/C#N)cc(C)c1Nc1nc(Nc2ccc3cc(C#N)ccc3c2)ncc1N", "target or system": "HIV-1", "assay": "viral replication, single-round infection", "system": "RT mutant D67E", "quantity": "EC50", "result": "> 7 nM"}
{"Substance": "TDEMIAQYTSALLAG", "target or system": "human CD4 T cells", "assay": "AIM", "system": "peptide", "quantity": "responding donors", "result": "9%"}
{"Substance": "O=C1Nc2ccc(Cl)cc2[C@@](C#CC2CC2)(C(F)(F)F)O1", "target or system": "HIV-1", "assay": "viral replication, single-round infection", "system": "RT mutant V111A", "quantity": "EC50", "result": "0.2 ± 0.04 nM"}
{"Substance": "CCc1c(C(=O)C(N)=O)c2c(OCC(=O)O)cccc2n1Cc1ccccc1", "system": "TN population, mouse", "setting": "intravenous, 60 µg/mouse, 24 h, preincubated with venom, together with: Daboia russelii venom 2.5 x LD50", "quantity": "survival", "result": "0%"}
{"Substance": "COc1ccc(Nc2cc(C(=O)NCCCN(C)Cc3ccccc3)c3ccccc3n2)cc1", "target or system": "SARS-CoV-2", "assay": "cytopathic effect, cell-based CPE", "system": "USA_WA1/2020", "setting": "round 2, 5-point dilution", "quantity": "maximal response", "result": "65.9%"}
{"Substance": "FDEDDSEPVL", "assay": "AIM", "system": "peptide, CD8+ T cells from PBMC, human donors", "setting": "HLA-B*40:01 restricted, unit not given", "scale": "reference: positive over tested donors", "quantity": "frequency of responding donors", "result": 40}
{"Substance": "COc1ccccc1-c1cccc(CN2CCCC(C(=O)NCc3ccc(F)cc3)C2)c1 (stereo not shown)", "target or system": "SARS-CoV-2", "assay": "cytopathic effect, cell-based CPE", "system": "USA_WA1/2020", "quantity": "AC50", "result": "14100 nM"}
{"Substance": "N#CC(C#N)=NNc1cccc(Cl)c1", "target or system": "Escherichia coli", "assay": "checkerboard", "system": "tetracycline-resistant", "setting": "21 µM, together with: tetracycline", "quantity": "FIC index", "result": 0.75}
{"Substance": "FTVEKGIYQTSNFRV", "target or system": "human CD4 T cells", "assay": "AIM", "system": "peptide", "quantity": "responding donors", "result": "9%"}
{"Substance": "CNC(=O)[C@@H](NC(=O)[C@H](CC(C)C)[C@H](O)C(=O)NO)C(C)(C)C", "target or system": "Daboia russelii venom proteases (SVMP)", "assay": "protease activity, inhibitor", "system": "MH population", "setting": "100 µM, together with: azocasein substrate", "scale": "reference: venom alone", "quantity": "remaining activity", "result": "0%"}
{"Substance": "STECSNLLLQYGSFC", "target or system": "human CD4 T cells", "assay": "AIM", "system": "peptide", "quantity": "responding donors", "result": "8%"}
{"Substance": "O=C(c1cc(COc2ccc3ncccc3c2)on1)N1CCC(c2ccncc2)CC1", "target or system": "Lassa mammarenavirus", "assay": "viral replication", "system": "Huh-7", "setting": "10 µM, 72 h", "quantity": "remaining activity", "result": "36%"}
{"Substance": "LPYGK", "assay": "DSC", "system": "peptide, 6/4 SOPC/cholesterol bilayers", "setting": "5 mol%, pH 7.40, SOPC chain melting transition", "quantity": "transition enthalpy", "result": "0.2 kcal/mol"}
{"Substance": "COCc1cc(N2CCCC(C(=O)c3ccc(Cl)cc3C)C2)ncn1 (stereo not shown)", "target or system": "Lassa mammarenavirus", "assay": "viral replication", "system": "Huh-7", "setting": "10 µM, 72 h", "quantity": "remaining activity", "result": "54%"}
{"Substance": "ASRELKVTF", "assay": "AIM", "system": "peptide, CD8+ T cells from PBMC, human donors", "setting": "HLA-A*30:01 restricted, unit not given", "scale": "reference: positive over tested donors", "quantity": "frequency of responding donors", "result": 100}
{"Substance": "Nc1ncnc2c([C@@H]3N[C@H](CO)[C@@H](O)[C@H]3O)c[nH]c12", "target or system": "Chikungunya virus", "assay": "viral replication", "system": "HeLa, AF 15561", "setting": "6.3 µM", "quantity": "inhibition", "result": "12.9%"}
{"Substance": "O=C(NCCN1CCCCC1)c1ccc(-c2ccc(N3CCSCC3)nc2)cc1", "target or system": "SARS-CoV-2", "assay": "cytopathic effect, cell-based CPE", "system": "USA_WA1/2020", "quantity": "AC50", "result": "14100 nM"}
{"Substance": "CC[C@H](C)[C@H](NC(=O)[C@H](CC(C)C)NC(=O)[C@H](Cc1c[nH]c2ccccc12)NC(=O)[C@H](CCC(N)=O)NC(=O)[C@@H](NC(=O)[C@H](Cc1ccccc1)NC(=O)[C@H](C)NC(=O)[C@H](CCCCNC(=O)COCCOCCNC(=O)COCCOCCNC(=O)CC[C@H](NC(=O)CCCCCCCCCCCCCCCCCCC(=O)O)C(=O)O)NC(=O)[C@H](CCC(N)=O)NC(=O)[C@H](C)NC(=O)[C@@H](NC(=O)[C@H](CCCCN)NC(=O)[C@H](CC(=O)O)NC(=O)[C@H](CC(C)C)NC(=O)C(C)(C)NC(=O)[C@@H](NC(=O)[C@H](CO)NC(=O)[C@H](Cc1ccc(O)cc1)NC(=O)[C@H](CC(=O)O)NC(=O)[C@H](CO)NC(=O)[C@@H](NC(=O)[C@H](Cc1ccccc1)NC(=O)[C@@H](NC(=O)CNC(=O)[C@H](CCC(=O)O)NC(=O)C(C)(C)NC(=O)[C@@H](N)Cc1ccc(O)cc1)[C@@H](C)O)[C@@H](C)O)[C@@H](C)CC)[C@@H](C)CC)C(C)C)C(=O)N[C@@H](C)C(=O)NCC(=O)NCC(=O)N1CCC[C@H]1C(=O)N[C@@H](CO)C(=O)N[C@@H](CO)C(=O)NCC(=O)N[C@@H](C)C(=O)N1CCC[C@H]1C(=O)N1CCC[C@H]1C(=O)N1CCC[C@H]1C(=O)N[C@@H](CO)C(N)=O", "system": "healthy subjects, single ascending dose", "setting": "2.5 mg, day 29", "quantity": "serum lipase", "result": "28.5 ± 16 U/L"}
{"Substance": "CC(C)(Nc1nc(N2CCNCC2)nc2ccccc12)c1ccccc1", "target or system": "SARS-CoV-2", "assay": "cytopathic effect", "system": "USA_WA1/2020", "setting": "retest, 8-point, duplicates", "quantity": "efficacy", "result": "23.5%"}
{"Substance": "LLEQWNLVIGFLFLT", "target or system": "human CD4 T cells", "assay": "AIM", "system": "peptide", "quantity": "responding donors", "result": "13%"}
{"Substance": "O=C(Nc1cccc(Cl)c1)C1CCCN(Cc2cccc(-c3ccc(F)cc3F)c2)C1 (stereo not shown)", "target or system": "SARS-CoV-2", "assay": "cytopathic effect", "system": "USA_WA1/2020", "setting": "round 1, 5-point", "quantity": "efficacy", "result": "47.3%"}
{"Substance": "Cc1cccn2c(CC(=O)NCc3cc(-c4ccco4)on3)cnc12", "target or system": "Lassa mammarenavirus", "assay": "viral replication", "system": "Huh-7", "setting": "10 µM, 72 h", "quantity": "remaining activity", "result": "56%"}
{"Substance": "CCCC(=O)OCSc1ccccc1C(=O)NCCC(N)=O", "target or system": "HIV-1", "assay": "viral replication", "system": "human PBMC, subtype E CMU02, CCR5-tropic clinical isolate", "quantity": "EC50", "result": "2300 ± 1210 nM"}
{"Substance": "Cc1cc(/C=C/C#N)cc(C)c1-n1cnc2cnc(Nc3ccc4cc(C#N)ccc4c3)nc21", "target or system": "HIV-1", "assay": "viral replication, single-round infection", "system": "RT mutant Y181I", "quantity": "EC50", "result": "1640 ± 168 nM"}
{"Substance": "Cc1ccc([N+](=O)[O-])[c]2c1[O][Hg]2", "target or system": "HeLa", "assay": "Ebola VLP entry", "quantity": "maximal inhibition", "result": "96%"}
{"Substance": "O=C(/C=C/c1ccc(O)c(O)c1/C=C/c1ccc(O)c(O)c1)O[C@H](Cc1ccc(O)c(O)c1)C(=O)O", "target or system": "rep main protease", "assay": "reporter gene (mKate2), inhibitor", "setting": "20 µM", "quantity": "inhibition", "result": "-1.15%"}
{"Substance": "COP(=S)(OC)Oc1ccc([N+](=O)[O-])c(C)c1", "target or system": "rat CYP3A", "assay": "midazolam 4-hydroxylation", "system": "liver microsomes", "setting": "concentration not given", "quantity": "Vmax", "result": "0.51 ± 0.06 nmol/min/mg protein"}
{"Substance": "CC(Nc1nc(N2CCNCC2C)nc2ccccc12)c1ccccc1 (stereo not shown)", "target or system": "SARS-CoV-2", "assay": "cytopathic effect", "system": "USA_WA1/2020", "setting": "retest 8-point", "quantity": "efficacy", "result": "75.6%"}
{"Substance": "Cc1cn([C@H]2C[C@H](N=[N+]=[N-])[C@@H](CO)O2)c(=O)[nH]c1=O", "target or system": "HIV-1", "assay": "viral replication", "system": "human PBMC, subtype C 98IN017, CXCR4-tropic clinical isolate", "quantity": "EC50", "result": "6.29 ± 0.11 nM"}
{"Substance": "Cn1cnc(Cn2c(=O)[nH]/c(=N\\c3cc4cn(C)nc4cc3Cl)n(Cc3cc(F)c(F)cc3F)c2=O)n1", "system": "human, mild renal impairment", "setting": "oral, 375 mg", "quantity": "dry mouth TEAE, Moderate severity", "result": "0%"}
{"Substance": "O=C(NS(=O)(=O)c1ccc(Br)s1)c1ccc(Cl)cc1Cl", "target or system": "rep main protease", "assay": "reporter gene (mKate2), inhibitor", "setting": "20 µM", "quantity": "inhibition", "result": "-0.936%"}
{"Substance": "VTLADAGFIKQYGDC", "target or system": "human CD4 T cells", "assay": "AIM", "system": "peptide", "quantity": "responding donors", "result": "17%"}
{"Substance": "Cc1cc(C)c2[nH]c(C(=O)N3CCOC(c4ccc(F)cc4)C3)c(C)c2c1 (stereo not shown)", "target or system": "Lassa mammarenavirus", "assay": "viral replication", "system": "Huh-7", "setting": "10 µM, 72 h", "quantity": "remaining activity", "result": "58%"}
{"Substance": "Cn1c(Cn2ccc(C(F)(F)F)c(Oc3cc(Cl)cc(C#N)c3)c2=O)n[nH]c1=O", "target or system": "HIV-1", "assay": "viral replication, single-round infection", "system": "RT mutant E138K/M184V", "quantity": "EC50", "result": "3 ± 0.1 nM"}
{"Substance": "Cc1cccc(C2CCCN(c3cc(C)nc(N)n3)C2)c1 (stereo not shown)", "target or system": "Lassa mammarenavirus", "assay": "viral replication", "system": "Huh-7", "setting": "10 µM, 72 h", "quantity": "remaining activity", "result": "53%"}
{"Substance": "Cc1ccc(-c2cccc(CN3CCCC(c4nc5ccc(C)cc5c(=O)[nH]4)C3)c2)c(C)c1 (stereo not shown)", "target or system": "SARS-CoV-2", "assay": "cytopathic effect", "system": "USA_WA1/2020", "setting": "round 2, 5-point", "quantity": "maximum response", "result": "101%"}
